Experimental data pooled from the literature.
Each numbered part is a random draw from the data of one study; scales do not carry over between parts. Several values in a cell are separate wells, animals, samples, runs or records.
Sequence of UniProt Q15569 (whole entry, looked up): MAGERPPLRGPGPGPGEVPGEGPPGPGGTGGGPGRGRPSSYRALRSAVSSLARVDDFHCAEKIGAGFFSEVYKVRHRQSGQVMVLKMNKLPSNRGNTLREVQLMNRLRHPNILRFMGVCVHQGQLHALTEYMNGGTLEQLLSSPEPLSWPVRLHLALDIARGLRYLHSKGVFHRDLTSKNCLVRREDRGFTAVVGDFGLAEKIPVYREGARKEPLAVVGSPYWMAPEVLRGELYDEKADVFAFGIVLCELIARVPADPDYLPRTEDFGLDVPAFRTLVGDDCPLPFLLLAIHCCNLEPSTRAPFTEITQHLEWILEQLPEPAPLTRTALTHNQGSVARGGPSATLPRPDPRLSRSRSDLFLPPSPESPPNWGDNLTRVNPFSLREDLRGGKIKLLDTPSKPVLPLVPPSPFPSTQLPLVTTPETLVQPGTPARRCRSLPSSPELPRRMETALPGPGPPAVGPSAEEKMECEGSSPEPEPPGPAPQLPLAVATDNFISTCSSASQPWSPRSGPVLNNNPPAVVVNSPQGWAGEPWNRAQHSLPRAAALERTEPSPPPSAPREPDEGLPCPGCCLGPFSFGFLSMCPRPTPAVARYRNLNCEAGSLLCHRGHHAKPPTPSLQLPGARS
Sequence of UniProt Q9Y6M4 (whole entry, looked up): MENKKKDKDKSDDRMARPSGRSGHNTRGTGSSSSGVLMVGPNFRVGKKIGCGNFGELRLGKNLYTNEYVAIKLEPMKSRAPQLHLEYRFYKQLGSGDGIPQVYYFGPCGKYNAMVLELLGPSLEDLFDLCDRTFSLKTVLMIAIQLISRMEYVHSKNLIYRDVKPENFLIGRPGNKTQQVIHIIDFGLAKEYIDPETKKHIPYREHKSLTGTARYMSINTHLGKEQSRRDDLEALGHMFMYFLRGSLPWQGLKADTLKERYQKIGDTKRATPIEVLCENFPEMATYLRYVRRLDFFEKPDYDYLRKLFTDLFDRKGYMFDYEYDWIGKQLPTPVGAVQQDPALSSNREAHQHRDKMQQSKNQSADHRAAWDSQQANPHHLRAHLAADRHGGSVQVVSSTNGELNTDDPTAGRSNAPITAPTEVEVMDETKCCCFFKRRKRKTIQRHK
Sequence of UniProt Q9C098 (whole entry, looked up): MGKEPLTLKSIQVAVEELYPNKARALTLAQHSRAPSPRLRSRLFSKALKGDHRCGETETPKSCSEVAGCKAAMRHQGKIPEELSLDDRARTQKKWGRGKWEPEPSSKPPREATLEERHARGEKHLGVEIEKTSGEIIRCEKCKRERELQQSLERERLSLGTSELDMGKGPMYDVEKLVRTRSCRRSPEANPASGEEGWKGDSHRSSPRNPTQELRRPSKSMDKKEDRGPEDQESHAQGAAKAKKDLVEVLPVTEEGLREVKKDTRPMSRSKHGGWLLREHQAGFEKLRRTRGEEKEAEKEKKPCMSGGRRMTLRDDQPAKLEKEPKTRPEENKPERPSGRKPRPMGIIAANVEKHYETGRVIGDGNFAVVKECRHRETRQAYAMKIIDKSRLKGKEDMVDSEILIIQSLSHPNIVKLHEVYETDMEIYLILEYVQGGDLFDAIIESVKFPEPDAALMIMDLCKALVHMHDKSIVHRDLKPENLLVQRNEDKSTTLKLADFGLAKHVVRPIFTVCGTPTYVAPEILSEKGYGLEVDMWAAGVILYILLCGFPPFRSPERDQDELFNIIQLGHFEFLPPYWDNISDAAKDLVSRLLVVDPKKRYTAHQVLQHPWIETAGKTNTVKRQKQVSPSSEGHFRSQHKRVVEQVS
Sequence of UniProt Q9UBF8 (whole entry, looked up): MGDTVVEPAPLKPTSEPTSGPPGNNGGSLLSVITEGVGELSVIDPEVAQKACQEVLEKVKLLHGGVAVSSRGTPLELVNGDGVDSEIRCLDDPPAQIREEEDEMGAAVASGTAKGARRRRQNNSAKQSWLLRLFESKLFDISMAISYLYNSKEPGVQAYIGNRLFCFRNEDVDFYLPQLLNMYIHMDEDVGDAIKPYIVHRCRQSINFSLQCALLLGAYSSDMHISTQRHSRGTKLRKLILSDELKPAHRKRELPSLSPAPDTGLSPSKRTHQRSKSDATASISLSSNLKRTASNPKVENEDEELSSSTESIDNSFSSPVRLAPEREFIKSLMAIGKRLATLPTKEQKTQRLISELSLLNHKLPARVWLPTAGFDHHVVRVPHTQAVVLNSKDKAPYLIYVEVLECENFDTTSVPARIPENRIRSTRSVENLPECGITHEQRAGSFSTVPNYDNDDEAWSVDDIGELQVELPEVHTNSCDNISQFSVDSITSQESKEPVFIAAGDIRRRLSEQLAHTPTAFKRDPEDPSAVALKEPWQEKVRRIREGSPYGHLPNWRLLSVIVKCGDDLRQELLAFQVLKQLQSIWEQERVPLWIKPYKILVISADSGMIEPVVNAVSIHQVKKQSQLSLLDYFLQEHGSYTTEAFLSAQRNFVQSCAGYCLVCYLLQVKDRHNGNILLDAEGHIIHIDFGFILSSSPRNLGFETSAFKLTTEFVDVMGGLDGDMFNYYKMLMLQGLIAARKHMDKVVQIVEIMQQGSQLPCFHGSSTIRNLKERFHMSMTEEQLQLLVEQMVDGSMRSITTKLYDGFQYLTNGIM
Sequence of UniProt P53355 (whole entry, looked up): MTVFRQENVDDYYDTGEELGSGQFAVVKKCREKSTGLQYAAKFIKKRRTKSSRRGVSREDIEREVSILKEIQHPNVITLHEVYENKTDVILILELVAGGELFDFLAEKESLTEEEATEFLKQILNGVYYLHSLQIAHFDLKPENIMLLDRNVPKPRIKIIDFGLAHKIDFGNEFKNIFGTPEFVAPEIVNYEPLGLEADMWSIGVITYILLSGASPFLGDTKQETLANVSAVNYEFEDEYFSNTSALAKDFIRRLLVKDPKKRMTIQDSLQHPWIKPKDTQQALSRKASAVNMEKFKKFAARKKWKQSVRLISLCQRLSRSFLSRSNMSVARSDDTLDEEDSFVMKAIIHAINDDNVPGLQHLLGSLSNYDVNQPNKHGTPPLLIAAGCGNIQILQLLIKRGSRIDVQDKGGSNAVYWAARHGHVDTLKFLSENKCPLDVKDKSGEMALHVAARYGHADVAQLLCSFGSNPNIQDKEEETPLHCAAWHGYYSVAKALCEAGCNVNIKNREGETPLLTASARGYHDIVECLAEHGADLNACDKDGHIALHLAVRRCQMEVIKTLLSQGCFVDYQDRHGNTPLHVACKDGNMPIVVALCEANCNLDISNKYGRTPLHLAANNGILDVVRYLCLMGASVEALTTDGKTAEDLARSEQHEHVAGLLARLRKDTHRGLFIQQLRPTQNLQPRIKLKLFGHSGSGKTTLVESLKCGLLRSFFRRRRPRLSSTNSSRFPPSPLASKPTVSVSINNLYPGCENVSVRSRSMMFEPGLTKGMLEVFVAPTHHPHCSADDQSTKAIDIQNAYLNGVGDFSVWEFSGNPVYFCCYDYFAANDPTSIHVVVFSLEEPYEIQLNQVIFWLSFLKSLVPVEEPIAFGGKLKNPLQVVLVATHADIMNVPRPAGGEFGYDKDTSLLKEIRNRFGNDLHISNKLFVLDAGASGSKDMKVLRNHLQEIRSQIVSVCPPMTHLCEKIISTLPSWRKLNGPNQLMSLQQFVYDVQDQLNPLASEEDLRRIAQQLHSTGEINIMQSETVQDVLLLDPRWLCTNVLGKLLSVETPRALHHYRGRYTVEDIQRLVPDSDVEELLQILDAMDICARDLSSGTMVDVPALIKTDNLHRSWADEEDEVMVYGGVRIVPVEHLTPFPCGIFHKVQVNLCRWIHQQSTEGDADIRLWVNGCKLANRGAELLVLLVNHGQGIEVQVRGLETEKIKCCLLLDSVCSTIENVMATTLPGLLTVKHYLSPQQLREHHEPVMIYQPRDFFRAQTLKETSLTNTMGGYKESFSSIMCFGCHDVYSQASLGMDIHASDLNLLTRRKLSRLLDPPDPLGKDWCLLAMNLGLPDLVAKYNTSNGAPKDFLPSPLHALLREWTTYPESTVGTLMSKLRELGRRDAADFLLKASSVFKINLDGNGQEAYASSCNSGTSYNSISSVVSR
Sequence of UniProt P22455 (whole entry, looked up): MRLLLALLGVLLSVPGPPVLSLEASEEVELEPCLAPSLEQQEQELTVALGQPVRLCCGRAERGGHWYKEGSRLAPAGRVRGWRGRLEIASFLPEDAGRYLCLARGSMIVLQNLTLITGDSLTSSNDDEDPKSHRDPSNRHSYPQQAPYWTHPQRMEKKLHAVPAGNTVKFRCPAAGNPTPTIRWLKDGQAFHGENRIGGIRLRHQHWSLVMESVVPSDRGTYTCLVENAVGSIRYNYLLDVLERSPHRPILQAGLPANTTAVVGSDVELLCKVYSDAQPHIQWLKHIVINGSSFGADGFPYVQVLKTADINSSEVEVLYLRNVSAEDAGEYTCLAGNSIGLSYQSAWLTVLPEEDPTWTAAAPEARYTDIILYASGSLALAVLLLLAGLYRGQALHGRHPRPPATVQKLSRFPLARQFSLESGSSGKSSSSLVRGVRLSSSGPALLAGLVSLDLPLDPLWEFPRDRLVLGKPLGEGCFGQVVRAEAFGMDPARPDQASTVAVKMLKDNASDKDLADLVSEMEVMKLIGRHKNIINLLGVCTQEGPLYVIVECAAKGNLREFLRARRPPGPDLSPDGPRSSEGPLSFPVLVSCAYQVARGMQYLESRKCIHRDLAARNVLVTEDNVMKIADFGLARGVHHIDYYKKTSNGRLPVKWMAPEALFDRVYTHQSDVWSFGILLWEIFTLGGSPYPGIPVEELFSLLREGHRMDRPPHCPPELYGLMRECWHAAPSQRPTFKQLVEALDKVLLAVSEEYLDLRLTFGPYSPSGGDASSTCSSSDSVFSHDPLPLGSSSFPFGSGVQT
Sequence of UniProt O75716 (whole entry, looked up): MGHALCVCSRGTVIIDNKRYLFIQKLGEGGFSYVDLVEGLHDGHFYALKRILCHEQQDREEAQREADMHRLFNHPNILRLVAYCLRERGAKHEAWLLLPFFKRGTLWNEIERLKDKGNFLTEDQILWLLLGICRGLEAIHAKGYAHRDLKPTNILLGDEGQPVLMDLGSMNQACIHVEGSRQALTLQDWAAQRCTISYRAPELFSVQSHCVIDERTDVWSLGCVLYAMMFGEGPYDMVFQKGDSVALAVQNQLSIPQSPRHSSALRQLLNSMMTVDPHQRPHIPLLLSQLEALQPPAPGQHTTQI

Block 1
Compound: Ic1ccc(Nc2nc(NCCN3CCOCC3)nc(N3CCOCC3)n2)cc1
Cell line: HEK293T ATF4-firefly luciferase reporter
Read-out: integrated stress response
Item: ATF4
Reference: DMSO
Measurement: reporter signal
1 µM, added: ISRIB: 86.2% and 80.7% and 72.1% and 76.7% and 83.2% and 65.8% and 88.8% and 76.5%
1 µM, without ISRIB: 101% and 107% and 120% and 94.3% and 121% and 94.4% and 91.9%
10 µM, added: ISRIB: 94.2% and 117% and 88.1% and 91.6% and 106% and 93% and 81.8% and 126%

Block 2
Compound: COc1ccc2c(c1)O[C@H](c1ccc(OC)c(OC)c1)C[C@@H]2NC(=O)C1(c2ccc3c(c2)OC(F)(F)O3)CC1
Method: competition with immobilised ligand
Tested at: 1 µM
Measurement: remaining binding
NLK (Homo sapiens, UniProt Q9UBE8); cell-free assay: 100%
EGFR (Homo sapiens, UniProt P00533, del747-752/P753S); cell-free assay: 59%
CSNK1G3 (Homo sapiens, UniProt Q9Y6M4); cell-free assay: 100%
SGK3 (Homo sapiens, UniProt Q96BR1); cell-free assay: 100%
MYLK (Homo sapiens, UniProt Q15746); cell-free assay: 100%
DCLK3 (Homo sapiens, UniProt Q9C098); cell-free assay: 100%
BMPR1A (Homo sapiens, UniProt P36894); binding: 98%
NTRK3 (Homo sapiens, UniProt Q16288); cell-free assay: 92%
PI4KB (Homo sapiens, UniProt Q9UBF8); cell-free assay: 81%
HUNK (Homo sapiens, UniProt P57058); cell-free assay: 72%
TESK1 (Homo sapiens, UniProt Q15569); cell-free assay: 98%
DAPK1 (Homo sapiens, UniProt P53355); cell-free assay: 100%
Tyrosine-protein kinase JAK1, JH2 (JAK1, Homo sapiens, UniProt P23458); cell-free assay: 100%
STK16 (Homo sapiens, UniProt O75716); cell-free assay: 100%
PLK2 (Homo sapiens, UniProt Q9NYY3); cell-free assay: 100%
FGFR4 (Homo sapiens, UniProt P22455); cell-free assay: 100%

Block 3
Target: RNA binding protein fox-1 homolog 2, RRM domain, GST-SBP tag (RBFOX2, Homo sapiens, UniProt O43251-10, residues 100-194)
Method: RNA Bind-n-Seq
Molecule type: RNA
Matrix: in vitro
Tested at: 365 nM
Setting: natural RNA segment, single round, ends assumed
Reference: no-protein control
Direction: higher = stronger binding
Measurement: RBNS enrichment (R)
All sequences stand within: GGGAGUUCUACAGUCCGACGAUC … UGGAAUUCUCGGGUGCCAA
Target sequence (chain): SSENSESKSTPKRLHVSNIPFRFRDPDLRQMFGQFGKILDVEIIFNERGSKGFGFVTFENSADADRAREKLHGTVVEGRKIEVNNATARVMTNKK
GGCAUGAGCGCAUGGAUUCUGUCACCAAGCGUAUAAAAGGACCCUGGCAUUGGGAAACCUAUGACGGACUGUUUUUGCUGUAGAAGUAGGGAUUUUACAGAAGUCUCCUU: 3.54
GGUGAUUGUUCAGGUUGUAGAAUGCGCAUUUUACAUUGUUUAUGAUAAUUGAAGGGUACUUCUGUCUGCUCCAAUUUCCAUUCCUUGGUAUACUCAGUAUGUCCUAGUAA: 0.523
CCAGGGGAAUCUUUUCUCUAAAACAUUUAUGCCCUUGCUUUGGCUAGAAACACAUUAACUGGUUUACUCAUUGAGAAUCCAGCAUAUUUAAGAGGUGACCCUGUGUUUUU: 0.363
GAAAAAUACUGCAGAAGUUAAACCUGUGAUGUGUUUUUUUGAGCUGUUUUGUUUUAAGGUAACUACUGAAAUAAGUCUGGCUGUUUUUAUAUGCCAGAUACAGAGAAUUU: 0.647
UGCAGGAGGUAGCAUCACCUCUUGGCAUUUUGUACAUGCUUUUAAACAAUUGGAGGAGCUGCCCAGGCAGUUUUAUGGCCUCCUGGUUGUGUGCCUUCACACCCGCCUAC: 0.445
UAAAAACAGUUCACCUGUAAAUACUUUUUCCUUUUUCACCGUUGUAUUAUACAUGUAUAUGCUGGGUCCUUUUUCAGAAACUCUUUUCUUACCUGAGAGUUGUCUUGUUU: 0.913
UAUUUUGCGAAACAAAACAAAACAAAAAAAAAAGCUUGGAACUCCAUCACGUGGAAAAACUAGAUCCUGUUGGUUAUAGCAUUUGUGAGUUCUCCACGUCUGUCUCUCUC: 0.695
CAGGCCACCUCCCCAGCAUUCCAGCCCCUCUGGUCGCUCCUGCCCACGGAGUCGUGGGGUGUGCUGGGAGCUCCACUCUGCUUCUCUGACUUCUGCCUGGAGACUUAGGG: 0.27

Block 4
Organism: Sarcocystis neurona
Read-out: parasite growth
Tested at: 10 µM
Setting: secondary screen
Measurement: inhibition
Cc1nc2ccc(CN(C)c3ccc(C(=O)N[C@@H](CCC(=O)O)C(=O)O)s3)cc2c(=O)[nH]1: -43.1%
COC(=O)C1=C(C)NC(C)=C(C(=O)O[C@@H]2CCCN(Cc3ccccc3)C2)[C@@H]1c1cccc([N+](=O)[O-])c1.Cl (racemic): 8.4%
COc1ccnc(C[S+]([O-])c2nc3ccc(OC(F)F)cc3[nH]2)c1OC (stereo not drawn): -92.6%

Block 5
Host: human
Matrix: microsomes or S9
Tested at: 2 µM
Time: 0.5 h
Measurement: remaining compound
Cc1c(C)n(-c2nccs2)c2ncnc(NCc3cccnc3)c12: 50.8%
CCC(CC)C(=O)N(C)c1ccc(-c2ccccc2)nn1: > 100%
O=C(CCc1nnc[nH]1)Nc1cc(C2CCCCCC2)[nH]n1: 90.5%

Further values, each from its own experiment
CC(C)C[C@@H]1NC(=O)[C@H](CC(C)C)NC(=O)[C@H](CC(C)C)NC(=O)[C@H](CC(C)C)NC(=O)[C@@H](CCC(=O)N2CCCC2)NC(=O)[C@H](Cc2cscn2)NC(=O)[C@H](C)NC1=O — logD 1,9-decadiene/water (PRP chromatography; linear fit, 1 mL): -1.43 log units
CN(C(=O)c1ccn2ncc(-c3ccc(C(N)=O)cc3)c2c1)c1ccc(C#N)cn1 — plasma concentration (C57BL/6 IFN-γ knockout mouse, female, plasma; oral, 10 mg/kg, 4 h): 487 nM
CC(C)n1cnc(-c2ccc(F)cc2)c1-c1ncc(C(=O)Nc2ccc(N3CCN(C)CC3)cc2)[nH]1 — patients with constipation (phase 2a trial; idiopathic pulmonary fibrosis patients; 30 mg once daily, adverse event grade 2): 0%
CC(=O)N[C@@H](Cc1c[nH]c2ccccc12)C(=O)N[C@@H](CCC(=O)C=[N+]=[N-])C(=O)OC(C)C — log2 fold change (item: S-lactoylglutathione; mouse, EL4 tumour-bearing, EL4 tumour; dose not given; reference: vehicle): -1.1
COc1ccc([C@@H]2OC[C@H]3[C@@H]2CO[C@@H]3c2ccc(O[C@@H]3O[C@H](CO)[C@@H](O)[C@H](O)[C@H]3O)c(OC)c2)cc1OC — viability (HaCaT; 100 µM, 36 h): 87.8%
O=C(COc1ccccc1P(=O)(O)O)NCC(F)(F)c1cccc(F)c1 — ATP/ADP ratio (INS-1; concentration not given, low glucose): 3.76 and 3.82 and 3.83

A few entries again (block 2):
BMPR1A (Homo sapiens, UniProt P36894); binding: 98%
NTRK3 (Homo sapiens, UniProt Q16288); cell-free assay: 92%
PI4KB (Homo sapiens, UniProt Q9UBF8); cell-free assay: 81%
